Measured values pooled from the literature.
Values joined by “and” are separate records of one study, mostly repeats; a detail may differ. In brackets after ≈: the same amount, converted by molar mass.

SMILES	target	assay	test system	conditions	scale	quantity	result
c1ccc(-c2n[nH]cc2-c2ccnc3ccccc23)nc1	Pom1 kinase Candida albicans	MIB/MS competition binding	Candida albicans cell lysate	100 nM	reference: DMSO, lower = stronger binding	log2 fold change	1.43
COc1nnc2ccc(N3CCC(c4ccc(OCCN5CCN(C)C(=O)[C@H]5C)cc4)CC3)nn12	BRD4 (human)	qPCR, item: BRD4 target genes	cancer patients, peripheral blood	dose not given		time to maximum effect	2 to 3 h
CCCSc1nc(N[C@@H]2C[C@H]2c2ccc(F)c(F)c2)c2nnn([C@@H]3C[C@H](OCCO)[C@@H](O)[C@H]3O)c2n1	Nedd8-cullin1 interaction	neddylation, AlphaScreen		100 µM		inhibition	39.3%
O=P(O)(O)O[C@@H]1[C@H](O)[C@H](O)[C@@H](OP(=O)(O)O)[C@H](OP(=O)(O)O)[C@H]1O	IP3 receptor	Ca2+ release, agonist	MEF BI-1-/- (empty vector) permeabilized			EC50	0.00357 mM
Cc1c(CN2CCN(C(=O)[C@H](C)O)CC2)sc2c(N3CCOCC3)nc(-c3cnc(N)nc3)nc12	phospho-Akt	Akt phosphorylation, inhibitor	human patients with epithelioid mesothelioma, plasma	PK-PD study		IC50	9.3 ng/mL (≈ 0.0187 µM)
Nc1cc(-c2ccncc2)c[nH]c1=O	Nedd8-cullin1 interaction	neddylation, AlphaScreen		100 µM		inhibition	-13.1%
O=C(O)C(=O)O	sulfate/chloride exchanger, human		neutrophils	external binding site		Km	6.4 mM
C[N+](C)(C)Cc1cccc(N=Nc2cccc(C[N+](C)(C)C)c2)c1	muscarinic potassium conductance, frog	ion current	atrial trabeculae	20 µM, 22-24 °C, flash relaxation, added: carbachol 5 µM		rate constant	3.23 s⁻¹
Cc1n[nH]c2ccc(-c3cc(OC[C@@H](N)Cc4ccccc4)cnc3-c3ccoc3)cc12	Pom1 kinase Candida albicans	MIB/MS competition binding	Candida albicans cell lysate	10 µM	reference: DMSO, lower = stronger binding	log2 fold change	-2.53
CC(C)(Sc1cc(C(C)(C)C)c(O)c(C(C)(C)C)c1)Sc1cc(C(C)(C)C)c(O)c(C(C)(C)C)c1	Nedd8-cullin1 interaction	neddylation, AlphaScreen		100 µM		inhibition	9.2%
COc1cc(Nc2ncc3c(n2)-c2ccc(Cl)cc2C(c2c(F)cccc2OC)=NC3)ccc1C(=O)NCCOCCOCCNC(=O)COc1cccc2c1C(=O)N(C1CCC(=O)NC1=O)C2=O (centres unmarked)	human EIF3J	binding, kinobead competition	MV4-11 cell lysate			EC50	> 0.03 mM
CC(Nc1nc(N2CCCC2)nc2ccccc12)c1ccccc1 (centres unmarked)	transportin-1/2	FUS nuclear import, high content imaging	HeLa Kyoto reporter	31.65 µM, 2 h		cells with nuclear reporter	98.9%
[Br-].[K+]	sulfate/chloride exchanger, human	sulfate influx, inhibitor	neutrophils	external site, added: 2 µM nigericin, 85 mM K+		Ki	43.6 mM
[Ca+2]	human TRPA1 W1103A	ion current, two-electrode voltage clamp	Xenopus oocytes	-80 mV, added: AITC		desensitization time constant	174 s and 101 s and 48 s and 176 s and 117 s and 331 s
O=C(O)CCC(=O)O	sulfate/chloride exchanger, human	sulfate influx, inhibitor	neutrophils	external site, added: 2 µM nigericin, 85 mM K+		Ki	~80 mM
NCCCCCC(=O)O	Nedd8-cullin1 interaction	neddylation, AlphaScreen		100 µM		inhibition	11.8%
c1coc(-c2n[nH]cc2-c2ccnc3ccccc23)c1	SAT4 (Candida albicans)	kinase binding, MIB/MS competition	Candida albicans lysate	1 µM	reference: DMSO	log2 fold change	0.09
CCOC(=O)[C@H](CCc1ccccc1)N[C@@H](C)C(=O)N1CCC[C@H]1C(=O)O	Nedd8-cullin1 interaction	neddylation, AlphaScreen		100 µM		inhibition	17.8%
C#Cc1cc(-c2cc(Nc3nc(N[C@@H](C)c4ccc(F)cn4)ncc3Cl)n[nH]2)ccc1C=O	panel of 416 human kinases	kinase activity		200 nM, hit threshold 10		number of kinase hits	37

SMILES	target	assay	test system	conditions	scale	quantity	result
C[n+]1cccc2cc(C=NNC(=O)c3ccc4ccc5ccc(C(=O)NN=Cc6ccc7c(ccc[n+]7C)c6)nc5c4n3)ccc21.[I-].[I-]	hairpin duplex DNA	UV melting		1 molar equivalents, DNA 3 µM		ΔTm	0.9 °C
N#Cc1ccn2c(-c3ccncc3)c(-c3ccc(F)cc3)nc2c1	Pom1 kinase Candida albicans	MIB/MS competition binding	Candida albicans cell lysate	1 µM	reference: DMSO, lower = stronger binding	log2 fold change	-0.241
[O]=[W](=[O])([OH])[OH]	sulfate/chloride exchanger, human		neutrophils	external binding site		Km	1 mM
N#Cc1ccc2c(-c3ccncc3)c(-c3ccc(F)cc3)nn2c1	Pom1 kinase Candida albicans	MIB/MS competition binding	Candida albicans cell lysate	1 µM	reference: DMSO, lower = stronger binding	log2 fold change	-0.426
O=CO	sulfate/chloride exchanger, human	sulfate influx, inhibitor	neutrophils	external site, added: 2 µM nigericin, 85 mM K+		Ki	81.8 mM
CCN1CCN(Cc2ccc(NC(=O)c3ccc(C)c(/C=C/c4cnc5[nH]ccc5c4OC)c3)cc2C(F)(F)F)CC1	ABL and ARG human	KiNativ	A-375 live cells	0.5 µM		inhibition	> 98%
CC[C@@H]1[C@H](F)C(=O)N[C@@H]1COc1nccc2cc(C(N)=O)c(OC)cc12	Aurora A, B and C	ATP-site probe binding, inhibitor, ActivX ATP probe profiling	THP-1 cell lysate	0.01 mM, ATP loop site		inhibition	4.9%
[O]=[Mo](=[O])([OH])[OH]	sulfate/chloride exchanger, human	sulfate influx, inhibitor	neutrophils	external site, added: 2 µM nigericin, 85 mM K+		Ki	52.7 mM
CNCCc1ccccn1	Nedd8-cullin1 interaction	neddylation, AlphaScreen		100 µM		inhibition	24.5%
O=C(O)CC(O)(CC(=O)O)C(=O)O	sulfate/chloride exchanger, human	sulfate influx, inhibitor	neutrophils	external site, added: 2 µM nigericin, 85 mM K+		Ki	~80 mM
CCCCc1nc(Cl)c(CO)n1Cc1ccc(-c2ccccc2-c2nn[nH]n2)cc1	Nedd8-cullin1 interaction	neddylation, AlphaScreen		100 µM		inhibition	75.1%
CC(=O)Nc1cccc(-n2c(=O)n(C3CC3)c(=O)c3c(Nc4ccc(I)cc4F)n(C)c(=O)c(C)c32)c1	TDO2 human	inhibitor	A-172	1 µM		kynurenine production	14.1%
COc1ccc(-c2cc(=O)c3c(O)cc(O[C@@H]4O[C@H](CO[C@@H]5O[C@@H](C)[C@H](O)[C@@H](O)[C@H]5O)[C@@H](O)[C@H](O)[C@H]4O)cc3o2)cc1O	Nedd8-cullin1 interaction	neddylation, AlphaScreen		100 µM		inhibition	50.2%
CCc1ccc(NC(=O)Nc2c[nH]c3ccccc23)cc1	STING (mouse)	inhibitor	HEK293T expressing mouse STING	5 µM, 2 h, added: 100 µM cGAMP		pIRF3 inhibition	inhibited
N=C(N)c1ccc(-c2ccc(-c3ccc(C(=N)N)cc3)o2)cc1	PRMT1	enzyme activity, inhibitor			reference: SAH IC50 over compound IC50	relative IC50	0.56
CCOC(=O)c1cc(Cl)cc(NC(=O)c2sc(Cl)cc2S(=O)(=O)N(C)c2ccc(OCC)c(OC)c2)c1	nuclear hormone receptors	binding				EC50	> 0.025 mM
Oc1ccccc1-c1n[nH]cc1-c1ccnc2ccccc12	SAT4 (Candida albicans)	kinase binding, MIB/MS competition	Candida albicans lysate	10 µM	reference: DMSO	log2 fold change	-0.09
O=C(NN=Cc1ccc(C[n+]2ccccc2)cc1)c1ccc2ccc3ccc(C(=O)NN=Cc4ccc(C[n+]5ccccc5)cc4)nc3c2n1.[Br-].[Br-]	hairpin duplex DNA	UV melting		1 molar equivalents, DNA 3 µM		ΔTm	0.1 °C
Cc1cc(C(=O)NOCCO)c(Nc2ccc(I)cc2F)n(C)c1=O	TDO2 human	inhibitor	A-172	1 µM		kynurenine production	16%

Some of these lines once more:
SMILES	target	assay	test system	conditions	scale	quantity	result
COc1nnc2ccc(N3CCC(c4ccc(OCCN5CCN(C)C(=O)[C@H]5C)cc4)CC3)nn12	BRD4 (human)	qPCR, item: BRD4 target genes	cancer patients, peripheral blood	dose not given		time to maximum effect	2 to 3 h
CCN1CCN(Cc2ccc(NC(=O)c3ccc(C)c(/C=C/c4cnc5[nH]ccc5c4OC)c3)cc2C(F)(F)F)CC1	ABL and ARG human	KiNativ	A-375 live cells	0.5 µM		inhibition	> 98%
O=CO	sulfate/chloride exchanger, human	sulfate influx, inhibitor	neutrophils	external site, added: 2 µM nigericin, 85 mM K+		Ki	81.8 mM
N#Cc1ccn2c(-c3ccncc3)c(-c3ccc(F)cc3)nc2c1	Pom1 kinase Candida albicans	MIB/MS competition binding	Candida albicans cell lysate	1 µM	reference: DMSO, lower = stronger binding	log2 fold change	-0.241
